# Measured values collected from several papers.
# Each line is one published result; not all experiments were run side by side.
SMILES,method,medium,time,pH,temperature,measurement,result
CC[C@H](C)[C@@H]1NC(=O)[C@H](CCCNC(=N)N)NC(=O)C[C@@H](c2cccc3ccccc23)NC(=O)[C@@H]2CSSC[C@H](NC(=O)C[C@@H](c3cccc4ccccc34)NC(=O)[C@H](CCCNC(=N)N)NC(=O)[C@@H]3CCCN3C(=O)[C@@H]3CCCN3C1=O)C(=O)N[C@@H](Cc1ccccc1)C(=O)N1CCC[C@H]1C(=O)N[C@@H](CC(=O)O)C(=O)N[C@@H](CC(=O)O)C(=O)N[C@@H](Cc1ccccc1)C(=O)N2,,water,,,,solubility,< 1000 µg/mL
NC1CCN(C(=O)Oc2cccc([C@H]3CCC[C@@]4(C3)OOC3(O4)C4CC5CC(C4)CC3C5)c2)CC1 (stereo partly shown),,PBS,,pH 7.4,,kinetic solubility,48.7 µM
C#CCCCC(=O)N[C@H]1CCOC1=O,NMR,water,,,20 °C,solubility,1100 µM
CC1COC2=C1C(=O)C(=O)c1c2ccc2c1C(OC(=O)CNC(=O)C(N)CO)CCC2(C)C (mixture of isomers),,PBS,,pH 7.4,25 °C,thermodynamic solubility,150 µg/mL
COCCOCCc1cc(NC(=O)C(C)(C)S(=O)(=O)C2CCOCC2)on1,,water,,,,solubility,> 510 µg/mL
CC1COC2=C1C(=O)C(=O)c1c2ccc2c1C(OC(=O)CNC(=O)CN)CCC2(C)C (mixture of isomers),,water,,,25 °C,thermodynamic solubility,273 µg/mL
CC[C@H](C)[C@H](NC(=O)[C@H](C)NC(=O)CNC(=O)[C@H](Cc1ccccc1)NC(=O)[C@H](CC(N)=O)NC(=O)[C@H](CC(N)=O)NC(=O)[C@H](CO)NC(=O)[C@H](CO)NC(=O)[C@H](Cc1c[nH]cn1)NC(=O)[C@@H](NC(=O)[C@H](CC(C)C)NC(=O)[C@H](Cc1ccccc1)NC(=O)[C@H](CC(N)=O)NC(=O)[C@H](C)NC(=O)[C@H](CC(C)C)NC(=O)[C@H](CCCNC(=N)N)NC(=O)[C@H](CCC(N)=O)NC(=O)[C@@H](NC(=O)[C@H](C)NC(=O)[C@@H]1CSSC[C@H](NC(=O)[C@@H](N)CCCCN)C(=O)N[C@@H](CC(N)=O)C(=O)N[C@@H]([C@@H](C)O)C(=O)N[C@@H](C)C(=O)N[C@@H]([C@@H](C)O)C(=O)N1)[C@@H](C)O)C(C)C)C(=O)N[C@@H](CC(C)C)C(=O)N[C@@H](CO)C(=O)N[C@@H](CO)C(=O)N[C@H](C(=O)N[C@@H](CC(N)=O)C(=O)N[C@H](C(=O)NCC(=O)N[C@@H](CO)C(=O)N[C@@H](CC(N)=O)C(=O)N[C@H](C(=O)N[C@@H](Cc1ccc(O)cc1)C(N)=O)[C@@H](C)O)C(C)C)[C@@H](C)O[C@H]1O[C@H](CO[C@]2(C(=O)O)C[C@H](O)[C@@H](NC(C)=O)[C@H]([C@H](O)[C@H](O)CO)O2)[C@H](O)[C@H](O)[C@H]1NC(C)=O,,PBS,1 h,pH 7.4,,thermodynamic solubility,3520 µg/mL
CC1COC2=C1C(=O)C(=O)c1c2ccc2c1C(OC(=O)CNC(=O)C(N)CCC(=O)O)CCC2(C)C (mixture of isomers),,PBS,,pH 7.4,25 °C,thermodynamic solubility,1500 µg/mL
CC[C@H](C)[C@H](NC(=O)[C@H](C)NC(=O)CNC(=O)[C@H](Cc1ccccc1)NC(=O)[C@H](CC(N)=O)NC(=O)[C@H](CC(N)=O)NC(=O)[C@H](CO)NC(=O)[C@H](CO)NC(=O)[C@H](Cc1c[nH]cn1)NC(=O)[C@@H](NC(=O)[C@H](CC(C)C)NC(=O)[C@H](Cc1ccccc1)NC(=O)[C@H](CC(N)=O)NC(=O)[C@H](C)NC(=O)[C@H](CC(C)C)NC(=O)[C@H](CCCNC(=N)N)NC(=O)[C@H](CCC(N)=O)NC(=O)[C@@H](NC(=O)[C@H](C)NC(=O)[C@@H]1CSSC[C@H](NC(=O)[C@@H](N)CCCCN)C(=O)N[C@@H](CC(N)=O)C(=O)N[C@@H]([C@@H](C)O)C(=O)N[C@@H](C)C(=O)N[C@@H]([C@@H](C)O)C(=O)N1)[C@@H](C)O[C@H]1O[C@H](CO[C@@H]2O[C@H](CO)[C@@H](O)[C@H](O)[C@H]2NC(C)=O)[C@H](O)[C@H](O[C@@H]2O[C@H](CO)[C@H](O)[C@H](O)[C@H]2O)[C@H]1NC(C)=O)C(C)C)C(=O)N[C@@H](CC(C)C)C(=O)N[C@@H](CO)C(=O)N[C@@H](CO)C(=O)N[C@H](C(=O)N[C@@H](CC(N)=O)C(=O)N[C@H](C(=O)NCC(=O)N[C@@H](CO)C(=O)N[C@@H](CC(N)=O)C(=O)N[C@H](C(=O)N[C@@H](Cc1ccc(O)cc1)C(N)=O)[C@@H](C)O)C(C)C)[C@@H](C)O,,PBS,1 h,pH 7.4,,thermodynamic solubility,50 µg/mL
CCCCC(CC)COC(=O)CC(C(=O)OCC(CC)CCCC)S(=O)(=O)O.COC(=O)Nc1nc2cc(C(=O)c3ccc(F)cc3)ccc2[nH]1 (stereo not shown),,water,,,,solubility,< 1 µg/mL

# Excerpt of the above:
SMILES,method,medium,time,pH,temperature,measurement,result
CC1COC2=C1C(=O)C(=O)c1c2ccc2c1C(OC(=O)CNC(=O)CN)CCC2(C)C (mixture of isomers),,water,,,25 °C,thermodynamic solubility,273 µg/mL
